# Results pooled from the literature.
# Lines come from different studies, so protocols differ. ± marks the error that the study gave.
SMILES,test,system,conditions,how to read,measurement,value
CCCCC1NC(=O)c2ccccc21 (racemic),thrombosis,"mouse, carrageenan-induced thrombosis","oral, 50 mg/kg daily for 2 days, 24 h after carrageenan",,black tail occurrence,30%
Nc1nc2c(ncn2COCCOC(=O)CCC(=O)OC[C@H](N)C(=O)O)c(=O)[nH]1,,excised rabbit cornea,"1000 µM, Na+-free buffer",baseline: Na+-containing buffer,transport across cornea,298%
CCC1CC2C(C)=CC3C(=O)CCCC3C=CC(C)=CC2C(=O)O1 (centres unmarked),"A11 dot blot, item: amyloid-beta oligomers","5XFAD mouse, cortex","oral gavage, 30 mg/kg/day, 5 days",baseline: vehicle,oligomer reduction,7.6%
CC(C)C[C@H](N)C(=O)N1CCC[C@H]1C(=O)NCC(=O)NCC(=O)O,"diketopiperazine formation, Arrhenius plot, ESI-MS",1-propanol,"70, 80, 90 °C, 0.5% acetic acid",,activation energy,24.9 ± 1.67 kcal/mol
Cc1cc(O)c(C=O)c2c1C(=O)Oc1c(CO)c(O)c3c(c1O2)C(O)OC3=O (centres unmarked),mating test,"rat, male, streptozotocin-induced diabetes",10 mg/kg,,mating success,83.3%
CCCC[C@H](NC(=O)[C@@H](NC(=O)[C@H](CC(=O)O)NC(=O)[C@H](CCC(N)=O)NC(=O)[C@H](CC(C)C)NC(=O)[C@H](CC(C)C)NC(=O)[C@H](CCCN)NC(=O)[C@H](CCCNC(=N)N)NC(=O)[C@H](C)NC(=O)[C@H](CO)NC(=O)[C@H](CC(C)C)NC(=O)[C@H](CCC(N)=O)NC(=O)[C@H](CC)NC(=O)[C@H](CC(C)C)NC(=O)[C@@H](NC(=O)[C@H](CCCN)NC(=O)[C@H](CCCNC(=N)N)NC(=O)[C@H](Cc1ccc(O)cc1)NC(=O)[C@H](CO)NC(=O)[C@H](CCC(N)=O)NC(=O)[C@@H](NC(=O)[C@H](Cc1ccccc1)NC(=O)[C@@H](NC(=O)[C@H](C)NC(=O)[C@H](CC(=O)O)NC(=O)[C@@H](C)NC(=O)[C@H](Cc1ccc(O)cc1)NC)[C@@H](C)CC)[C@@H](C)O)C(C)C)[C@@H](C)CC)C(=O)N[C@@H](CC(=O)O)C(=O)N[C@@H](CCCNC(=N)N)C(=O)NCC,GH release,"rat, male, serum","subcutaneous, 3 µg/kg, 15 min",baseline: reference GHRH agonist JI-38,relative potency,1.15
C=C(c1ncc(C(=O)O)cn1)c1cc2c(cc1C)C(C)(C)CCC2(C)C,"RNA sequencing, item: Cyp26b1 mRNA","rat, brain","dose not given, 24 h, single dose",baseline: vehicle,log2 fold change,-0.28
CCCC[C@H](NC(=O)[C@@H](NC(=O)[C@H](CC(=O)O)NC(=O)[C@H](CCC(N)=O)NC(=O)[C@H](CC(C)C)NC(=O)[C@H](CC(C)C)NC(=O)[C@H](CCCN)NC(=O)[C@H](CCCNC(=N)N)NC(=O)[C@H](C)NC(=O)[C@H](CO)NC(=O)[C@H](CC(C)C)NC(=O)[C@H](CCC(N)=O)NC(=O)[C@H](CC)NC(=O)[C@H](CC(C)C)NC(=O)[C@@H](NC(=O)[C@H](CCCN)NC(=O)[C@H](CCCNC(=N)N)NC(=O)[C@H](Cc1ccc(O)cc1)NC(=O)[C@H](CO)NC(=O)[C@H](CCC(N)=O)NC(=O)[C@@H](NC(=O)[C@H](Cc1ccccc1)NC(=O)[C@@H](NC(=O)[C@H](C)NC(=O)[C@H](CC(=O)O)NC(=O)[C@H](C)NC(=O)CCc1ccc(O)cc1)[C@@H](C)CC)[C@@H](C)O)C(C)C)[C@@H](C)CC)C(=O)N[C@@H](CC(=O)O)C(=O)N[C@@H](CCCNC(=N)N)C(=O)NC,GH release,"male rat, serum","subcutaneous, dose not given, 30 min",baseline: GHRH(1-29)NH2,relative potency,122
CC(=O)[O-].O.O.[O-]c1ccc(Br)cc1C=NCCN1CCOCC1.[Zn+2],superoxide scavenging,,240 µM,,inhibition,55.5%
CCCC[C@H](NC(=O)[C@@H](NC(=O)[C@H](CC(=O)O)NC(=O)[C@H](CCC(N)=O)NC(=O)[C@H](CC(C)C)NC(=O)[C@H](CC(C)C)NC(=O)[C@H](CCCN)NC(=O)[C@H](CCCNC(=N)N)NC(=O)[C@H](C)NC(=O)[C@H](CO)NC(=O)[C@H](CC(C)C)NC(=O)[C@H](CCC(N)=O)NC(=O)[C@H](CC)NC(=O)[C@H](CC(C)C)NC(=O)[C@@H](NC(=O)[C@H](CCCN)NC(=O)[C@H](CCCNC(=N)N)NC(=O)[C@H](Cc1ccc(O)cc1)NC(=O)[C@H](CO)NC(=O)[C@H](CC(N)=O)NC(=O)[C@@H](NC(=O)[C@H](Cc1ccccc1)NC(=O)[C@@H](NC(=O)[C@H](C)NC(=O)[C@H](CC(=O)O)NC(=O)[C@@H](C)NC(=O)[C@H](Cc1ccc(O)cc1)NC)[C@@H](C)CC)[C@@H](C)O)C(C)C)[C@@H](C)CC)C(=O)N[C@@H](CC(=O)O)C(=O)N[C@@H](CCCNC(=N)N)C(=O)NCC,GH release,"rat, male, serum","subcutaneous, dose not given, 15 and 30 min",baseline: reference GHRH agonist JI-38,relative potency,1 to 4 fold
O=C1/C(=C/c2ccc(O)cc2)Oc2c1c(O)cc1oc3cc(O)c(O)cc3c21,"ABTS scavenging, absorbance",,,,EC50,2620 µM
CCCC[C@H](NC(=O)[C@@H](NC(=O)[C@H](CC(=O)O)NC(=O)[C@H](CCC(N)=O)NC(=O)[C@H](CC(C)C)NC(=O)[C@H](CC(C)C)NC(=O)[C@H](CCCN)NC(=O)[C@H](CCCNC(=N)N)NC(=O)[C@H](C)NC(=O)[C@H](CO)NC(=O)[C@H](CC(C)C)NC(=O)[C@H](CCC(N)=O)NC(=O)[C@H](CC)NC(=O)[C@H](CC(C)C)NC(=O)[C@@H](NC(=O)[C@H](CCCN)NC(=O)[C@H](CCCNC(=N)N)NC(=O)[C@H](Cc1ccc(O)cc1)NC(=O)[C@H](CO)NC(=O)[C@H](CCC(N)=O)NC(=O)[C@@H](NC(=O)[C@H](Cc1ccccc1)NC(=O)[C@@H](NC(=O)[C@H](C)NC(=O)[C@H](CC(=O)O)NC(=O)[C@H](C)NC(=O)CCc1ccc(O)cc1)[C@@H](C)CC)[C@@H](C)O)C(C)C)[C@@H](C)CC)C(=O)N[C@@H](CC(=O)O)C(=O)N[C@@H](CCCNC(=N)N)C(=O)NCCCCC(N)=O,GH release,"male rat, serum","subcutaneous, dose not given, 30 min",baseline: GHRH(1-29)NH2,relative potency,126
O=[N+]([O-])c1ccc(Cl)c(-c2nnc(S)o2)c1,"superoxide scavenging, pyrogallol",,,,IC50,48.1 ± 1.9 µM
CCCC[C@H](NC(=O)[C@@H](NC(=O)[C@H](CC(=O)O)NC(=O)[C@H](CCC(N)=O)NC(=O)[C@H](CC(C)C)NC(=O)[C@H](CC(C)C)NC(=O)[C@H](CCCN)NC(=O)[C@H](CCCNC(=N)N)NC(=O)[C@H](C)NC(=O)[C@H](CO)NC(=O)[C@H](CC(C)C)NC(=O)[C@H](CCC(N)=O)NC(=O)[C@H](CC)NC(=O)[C@H](CC(C)C)NC(=O)[C@@H](NC(=O)[C@H](CCCN)NC(=O)[C@H](CCCNC(=N)N)NC(=O)[C@H](Cc1ccc(O)cc1)NC(=O)[C@H](CO)NC(=O)[C@H](CCC(N)=O)NC(=O)[C@@H](NC(=O)[C@H](Cc1ccccc1)NC(=O)[C@@H](NC(=O)[C@H](C)NC(=O)[C@H](CC(=O)O)NC(=O)[C@H](C)NC(=O)[C@H](Cc1ccc(O)cc1)NC)[C@@H](C)CC)[C@@H](C)O)C(C)C)[C@@H](C)CC)C(=O)N[C@@H](CC(=O)O)C(=O)N[C@@H](CCCNC(=N)N)C(=O)NC,GH release,"rat, male, serum","subcutaneous, dose not given, 15 and 30 min",baseline: reference GHRH agonist JI-38,relative potency,1 to 4 fold
Cc1ccccc1-c1cc(N2CCN(C(=O)CCC(=O)O)CC2)ccc1N(C)C(=O)C(C)(C)c1cc(C(F)(F)F)cc(C(F)(F)F)c1,"mechanical allodynia, antagonist, von Frey test",hNK1R-407 mice,"intrathecal, 5 µL, 100 nM, with: capsaicin",,duration of complete prevention,4 h
CCCC[C@H](NC(=O)[C@@H](NC(=O)[C@H](CC(=O)O)NC(=O)[C@H](CCC(N)=O)NC(=O)[C@H](CC(C)C)NC(=O)[C@H](CC(C)C)NC(=O)[C@H](CCCN)NC(=O)[C@H](CCCNC(=N)N)NC(=O)[C@H](C)NC(=O)[C@H](CO)NC(=O)[C@H](CC(C)C)NC(=O)[C@H](CCC(N)=O)NC(=O)[C@H](CC)NC(=O)[C@H](CC(C)C)NC(=O)[C@@H](NC(=O)[C@H](CCCN)NC(=O)[C@H](CCCNC(=N)N)NC(=O)[C@H](Cc1ccc(O)cc1)NC(=O)[C@H](CO)NC(=O)[C@@H](NC(=O)[C@@H](NC(=O)[C@H](Cc1ccccc1)NC(=O)[C@@H](NC(=O)[C@H](C)NC(=O)[C@H](CC(=O)O)NC(=O)[C@@H](C)NC(=O)[C@H](Cc1ccc(O)cc1)NC)[C@@H](C)CC)[C@@H](C)O)[C@@H](C)O)C(C)C)[C@@H](C)CC)C(=O)N[C@@H](CC(=O)O)C(=O)N[C@@H](CCCNC(=N)N)C(=O)NC,GH release,"male rat, serum","subcutaneous, dose not given, 15 min",baseline: GHRH(1-29)NH2,relative potency,102
CCc1nc2cc3ccccc3cc2cc1C(=O)N1CCC[C@H]1C(=O)N[C@@H](CCC/C=C/CCC[C@H](NC(=O)[C@@H]1CCCN1C(=O)c1cc2cc3ccccc3cc2nc1CC)C(=O)N[C@@H](CCCCN)C(=O)NCCCN)C(=O)N[C@@H](CCCCN)C(=O)NCCCN,MBNL1-independent splicing,"HSA^LR mouse, DM1 model, muscle","intraperitoneal, 40 mg/kg once daily, 5 days",,Capzb splicing,no effect
CCOP(=O)(OCC)OCCCCOC(=O)C(C)c1ccc(CC(C)C)cc1 (centres unmarked),immunofluorescence,"rat, AOM-induced colon cancer, colon","dose not given, 40 weeks",,β-catenin nuclear accumulation,decreased
COc1ccc2c(c1OC)C(C(Cl)(Cl)Cl)N1CCc3cc4c(cc3C1=C2)OCO4 (centres unmarked),,"rat, STZ-induced diabetic, serum","oral, 12 mg/kg, day 28",,ALP activity,139 ± 3.97 U/L
CC[C@H](C)[C@H](NC(=O)[C@H](CCCCN)NC(C)=O)C(=O)N[C@@H](C)C(=O)N[C@@H](C)C(=O)N[C@@H](CC(C)C)C(=O)N[C@@H](CCCCN)C(=O)N[C@@H](CCC(=O)O)C(=O)N[C@@H](CCCCN)C(=O)N[C@H](C(=O)N[C@@H](C)C(=O)N[C@@H](C)C(=O)N[C@@H](CC(C)C)C(=O)N[C@@H](CCCCN)C(=O)N[C@@H](CCC(=O)O)C(=O)N[C@@H](CCCCN)C(=O)N[C@H](C(=O)N[C@H]1CSCc2ccccc2CSC[C@@H](C(=O)NCC(=O)N[C@@H](Cc2c[nH]c3ccccc23)C(N)=O)NC(=O)[C@H](CCCCN)NC(=O)[C@H](CC(C)C)NC(=O)[C@H](C)NC1=O)[C@@H](C)CC)[C@@H](C)CC,sulforhodamine B,lipopeptide-decorated liposomes,"60 min, pH 7.4, 20 °C, up to, 1% cholesterol-PEG4 lipopeptide, 500 µM total lipid",,content mixing,≤ 93%

# Some of these lines once more:
SMILES,test,system,conditions,how to read,measurement,value
CC(C)C[C@H](N)C(=O)N1CCC[C@H]1C(=O)NCC(=O)NCC(=O)O,"diketopiperazine formation, Arrhenius plot, ESI-MS",1-propanol,"70, 80, 90 °C, 0.5% acetic acid",,activation energy,24.9 ± 1.67 kcal/mol
Cc1cc(O)c(C=O)c2c1C(=O)Oc1c(CO)c(O)c3c(c1O2)C(O)OC3=O (centres unmarked),mating test,"rat, male, streptozotocin-induced diabetes",10 mg/kg,,mating success,83.3%
